Published values from different studies.
Every numbered part comes from another study and shows a few of its results, in no order.

Study 1 — method: protein binding microarray; form: double-stranded DNA, one strand shown; medium: in vitro; concentration: not given; reference: not given; direction: higher = stronger binding
Target: Histone acetyltransferase KAT6A, winged helix 2, GST fusion (KAT6A, Homo sapiens, UniProt Q92794, residues 85-181)
Notes: 8-mer, flanks averaged, mean of 2 arrays, mostly near background
Residues (chain): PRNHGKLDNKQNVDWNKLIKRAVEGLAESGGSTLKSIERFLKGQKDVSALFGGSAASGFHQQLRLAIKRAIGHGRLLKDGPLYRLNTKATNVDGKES
Strand | E-score
GTCGCCGA | 0.164
ACTGGCTC | -0.0343
CAATGTCC | -0.0744
CTGTTACA | -0.0416
CATTCCTC | 0.0213
GTAGGTCA | -0.256
CGTGCCGA | 0.0534
ATGCTTGA | 0.108
CCGCTTAC | 0.102
ATCTTGCG | -0.0816
CCCCGTTA | -0.0574
ACAAGTAG | -0.234
CTGTTAAA | -0.035
ACCCGACA | 0.151
ACCCGCAA | 0.022
CGGTAGTC | -0.138
AGTCCAAG | -0.0832
AACGTAGA | -0.126
CCAAATCC | -0.02
AACCGGGA | 0.0655
CTTGTTGC | 0.0218
GACTGAAA | 0.0833
CGCGACCG | 0.317
CCCAGATA | -0.248
CTGTTAGC | -0.019

Study 2 — method: RNA Bind-n-Seq; form: RNA; medium: in vitro; concentration: not given; reference: input RNA pool; direction: higher = stronger binding
Target: RING finger protein unkempt homolog, zinc fingers 1-6, GST-SBP tag (UNK, Homo sapiens, UniProt Q9C0B0, residues 30-357)
Chain of UniProt Q9C0B0 (30-357, looked up): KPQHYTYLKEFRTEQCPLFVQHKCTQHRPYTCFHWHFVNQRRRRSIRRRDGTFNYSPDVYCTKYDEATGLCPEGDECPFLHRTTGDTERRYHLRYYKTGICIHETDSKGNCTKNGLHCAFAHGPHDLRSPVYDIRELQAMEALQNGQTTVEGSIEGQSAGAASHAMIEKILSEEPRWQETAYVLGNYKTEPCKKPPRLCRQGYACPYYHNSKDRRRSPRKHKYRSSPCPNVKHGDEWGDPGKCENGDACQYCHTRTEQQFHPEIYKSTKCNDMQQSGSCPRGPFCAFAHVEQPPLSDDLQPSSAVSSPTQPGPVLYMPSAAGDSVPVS
Notes: RNA with constant flanks, human-mouse chimeric sites, ends assumed
All sequences stand within: GGGAGUUCUACAGUCCGACGAUC … CAACAGAGGAUUGAGCAUCA
Strand | bound/input enrichment
UCCCAAAUCCAGCAGCUAGAAGGAGCCUUGAGACAAACACUCCACACGCAGGGAGGGCGAUAACAUUGUACAUUGGUUUACAUUUUUUCCCCCUGUGGAUUUUUCUAGAGGUCAUAGUGC | 0.397 ratio
AUUGUUGAAGCUAACCCACUUUUAGAAGCAUUUGGAAAUGCAAAGACUGUUCGCAACAAUAAUAGCAGUCGAUUUGGAAAAUUUGUAGAAAUUCAUUUCAAUGAAAAGAGUUCGGUUGUU | 0.595 ratio
CCCCAAUACCAUUUGCAGGUCUGGAACCUGCAUUCUUUUUUUAAAAAAUAUGCAUAUAUUUUAGGGCUGUAGAUUUAUUUUCCUGGUUUUGUUUUUCAUUGCUGACUUUUGAGCACAGAA | 0.689 ratio
GGGACUGAUUCAUCCCAAGGACAGGCCGCCCAGUCUGAUGCCUGGACUGAUGACAGUAUGGAAGGGCCUAGUCAAAAUGUUGAAGCUGAGUCAAUUCAGGAUGCCAUGAGUAUGGAAGAG | 0.287 ratio
CACACCCUCUUCUGUGGGACCCUCAUCUUGCAGGCCCGGGCCUAUGUGGGACCGCACGUCCUGGCAGUGGUGACCCGCACAGGGUUCUGCACGGCAAAAGGGGGCCUGGUGAGCUCCAUC | 0.102 ratio
GGACAUCUUGUCAGGAUUUAUGUUCCUGUGAAACAAGUGAACACUCUGAUACACUUCAUCUGCUUGUACAUUUAACUGAUAGAGAAAUGUAAAUAUGUUAAUCCAAGCAAUGUGUCACUU | 0.197 ratio
UUUCUACUGCAGCAAACCAUGCUACGAGUGAAGGAUCCUAAGAAGUCCCUGGAUUUUUAUACGAGGGUUCUUGGACUGACCCUCCUGCAGAAGCUUGACUUCCCUGCUAUGAAGUUCUCG | 0.157 ratio
CCACCAGGAUCCCAGAAACAUGACCCUUGCUGCCUACAAAGAGAAGAUGAAGGAGCUCCCGCUGGUGUCCUUGUUCUGCUCCUGCUUCCUGGCCGAUCCCCUGAAUAAAUCAUCCUACAA | 0.309 ratio
CUGAGGAUACCACUGAAAGAGACAUUAAAGAAUCAUUUGAGGGCUCUGUUCGUGCAAGAAUAGUCACUGAUCGGGAAACUGGUUCUUCCAAAGGGUUUGGUUUUGUAAGACUUCAACGUG | 0.361 ratio
UACUACUAUGAUGGUGAUAUUGGAAAUUAUUAUUAUGGACAGGGUCAUCCCAUGAAGCCUCAUAGAAUCCGGAUGACUCAUAACUUGCUGCUAAAUUAUGGUUUAUACCGAAAAAUGGAA | 0.263 ratio
UUCCCAACCUCCCGCCUCACCCCACCCCCGCUUUUUGGAAAGUUUUUGGCGUUUCUUUUCCUUCCCCAUACAAAGUGAUUACAGUUUCCCCCGCAAGGGUCUAUCGAUUCACCCUUCGGA | 0.604 ratio

Study 3 — method: RNA Bind-n-Seq; form: RNA; medium: in vitro; concentration: 365 nM; reference: no-protein control; direction: higher = stronger binding
Target: RNA binding protein fox-1 homolog 2, RRM domain, GST-SBP tag (RBFOX2, Homo sapiens, UniProt O43251-10, residues 100-194)
Notes: natural RNA segment, single round, ends assumed
All sequences stand within: GGGAGUUCUACAGUCCGACGAUC … UGGAAUUCUCGGGUGCCAA
Target sequence (chain): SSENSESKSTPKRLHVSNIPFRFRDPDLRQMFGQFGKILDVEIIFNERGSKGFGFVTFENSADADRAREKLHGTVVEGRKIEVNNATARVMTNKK
Strand | RBNS enrichment (R)
CUGUGGCUGUGAGGUCUCAUAUAGCAUAUUUAUAAAUGUUACUCAGGUUUAAAGUAUUUAAAAUAUAGUUACCUAAUUGUAAAUAGGCUGUUAACCAAAAGAGCUUCCCC | 0.309
AGCAAGAUACUAGUUCUUUGAUACUUUGAGAGGCGCUUUGAUUACCCCGAUUGAAGUCUCUGAAACUUUCCUAUGGUUUUCUGUAUUAUAUGUCUGGAUGGAGCUGUUUA | 0.41
CCACCACAGAAAAGCACAAACCUCUGGGAAAGACAACGUCUCUCGGGGGCCAGGGGUCAUCGGUUUGACCCCUGACCUAUAAGCCAAGAUACCCCAUAAACACACUCAGA | 0.457
GGAUGGGAGUCAGACUGGCUGAGGUUUCAAUUUUGCAUUCAUGGCCAGCCACCGUUCCAGGUCCUGUUGAGAUCAUCAUGUAACAGGACAACAAAGUCCCUGUCCUCAUG | 0.359
CCCAAGCACACAUGUGUGAAGGGCUAUAGCCAAAGUAUUUUUACUAGCCUGUAUGAAAUCACUAGUCCUUAUUUUUAAAGGUCUAUGGUUUCUUGGAAGUAGUUUGAUUG | 0.417
CAGCCACAUGUCACCUGUAGGUAGAAGUAAACUCUGCAGUGCAGCUUCUGCUCUUGGCCCCUCUGGCCAGGGCCCCUGUGGCUUCCUGCACACUGGACAGGUGACUGUAU | 0.309
AAAUGACAAACCCAGCCCUUCCCAGUAUACUUGAAAAGCUUUCUUGUUAAAAUAAAAGGUGUCACUGUGGUAGGCAUUUGGCAUAUUUUGUGGACUCAGUCAAGCAACCA | 0.326
GAGAAGAAACUACUUUGGAGUUUUUGAAAAAGCAAGCCAGAAAAUCCACUGAGCCUUCAGCAGAAAUUCCUUUUCUAGACAUUAAAACCACUUAACAUCCGUACUGUUUG | 0.433
GAAUACAGCGUCAGAAGGAUGCCAUAACCAUUCUGUUCCUUUACAGAACUAAAUUGCCGCAGACAGGAGUUAAAGUUUUAUAUUUUCCUGCUCAGUUAUCUAAUGUCUUA | 0.359
CAGUCAAGGAGAUGAGCGUCCUAAGGCAUGUUGGGAUAGGGUCAGAUGCACCACCCAUGGAGAGGUUUGUCAACACAAAGACAUGGAAGGUUAGAGGUUUGUCAACAAAA | 6.48
ACUCAGUCUGCGCCUCUAUAGGUUCUUGUAGAGCCUUGGUUGUUUCUGGCCUCUGCCUGGGACAGUAAAGGAUGGAGGAUCAGGCCUGGAGCCCCAGCCCCACCUUAGCC | 0.318
UGCCCUCCUCCAACUUGUUAAAACAUGUUUAUUCUAAAGUUCGAAUGGAUAAAUUUGAGUAUAAAGGUUUUGUUAUAAAACUGUUCUUUAGUGUAAGGCUGCAUUGUGGG | 0.794

Study 4 — method: protein-binding microarray; form: double-stranded DNA, one strand shown; medium: in vitro; concentration: 0.8 µM; notes: whole 60-bp probe, no competitor; direction: higher = stronger binding; all sequences stand within: … GTCTTGATTCGCTTGACGCTGCTG
Target: Centromere-binding protein 1, full length, N-terminal tag (CBF1, Saccharomyces cerevisiae, UniProt P17106, residues 1-351)
Chain of UniProt P17106 (whole entry, looked up): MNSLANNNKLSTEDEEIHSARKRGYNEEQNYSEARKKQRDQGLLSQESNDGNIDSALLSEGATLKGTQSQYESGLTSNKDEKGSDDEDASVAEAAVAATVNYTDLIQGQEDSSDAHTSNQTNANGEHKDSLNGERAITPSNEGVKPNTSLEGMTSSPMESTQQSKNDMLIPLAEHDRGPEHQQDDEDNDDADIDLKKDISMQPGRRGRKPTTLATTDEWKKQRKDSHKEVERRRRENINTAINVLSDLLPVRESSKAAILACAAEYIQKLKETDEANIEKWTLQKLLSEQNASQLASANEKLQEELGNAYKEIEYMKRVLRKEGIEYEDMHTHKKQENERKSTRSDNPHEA
Strand | fluorescence intensity
CTACGCTGCGTAAAACATCAGAGACGTATGTAATTC | 487 a.u.
TGTACGAAGCTATTTGATGTTACTATAGTAGTTAGG | 495 a.u.
CTAAGTTTCATTAGGAACGTGAGCAGAAAAATATTC | 1150 a.u.
GAAAAAAAATTAGATCACAAAAAGATAACTACATAG | 517 a.u.
GAATTGATATCTAATCTCACCAGACTTTCAAGTTAG | 529 a.u.
GAAATTGTATCGTGTCACCCCCATGTCATATTATAG | 650 a.u.
TGTACGAAGCTATAGCTCATGCATATAGTAGTTAGG | 538 a.u.
GAATTTTTTCAGTCGCTCGTGGTCTATCGCCAATAG | 593 a.u.
CTAACCCCTCATTTCCACGGGGTAAAAAAAAAATTC | 599 a.u.
GAACAGTTATGTCATAACGTGATTTTTACAATATAG | 1340 a.u.
CTATCTTTTTTTCTACACGTTGGTCTGATGTCTTTC | 631 a.u.
GAACCCTGCCAATTAGACGTGATGAAAAATATTTAG | 672 a.u.
CTAGTTTCTTTGGTGATCATGATATTAATAGAATTC | 616 a.u.
GAAAATCCCGGATTTCTCATCACGGTTTCCATATAG | 768 a.u.
CTAGTACTGATTACGTCCGTGATTCGAAAAGCATTC | 716 a.u.
GAATTGAAAAATTGAAGTCTGATGTGAATTTGATAG | 563 a.u.
GAACTTTCTGGCAGGCACGCTATGATGTGCTAATAG | 545 a.u.
CTATGCCTTACTCGGTATCACATGGAAAAGACCTTC | 1240 a.u.
GAAGTCGTTTAACGTCATGTAAGATTCCTAAGTTAG | 518 a.u.
CTATCTGACCATGGTGACATAACCAAAGTGTTCTTC | 526 a.u.

A few entries again (study 1):
Strand | E-score
CGGTAGTC | -0.138
AGTCCAAG | -0.0832
AACGTAGA | -0.126
CCAAATCC | -0.02
AACCGGGA | 0.0655
